Published values from different studies.
Numbered parts are unrelated; each lists some results of a single study. ± marks the error that the study gave.
Chain of UniProt P28887 (whole entry, looked up): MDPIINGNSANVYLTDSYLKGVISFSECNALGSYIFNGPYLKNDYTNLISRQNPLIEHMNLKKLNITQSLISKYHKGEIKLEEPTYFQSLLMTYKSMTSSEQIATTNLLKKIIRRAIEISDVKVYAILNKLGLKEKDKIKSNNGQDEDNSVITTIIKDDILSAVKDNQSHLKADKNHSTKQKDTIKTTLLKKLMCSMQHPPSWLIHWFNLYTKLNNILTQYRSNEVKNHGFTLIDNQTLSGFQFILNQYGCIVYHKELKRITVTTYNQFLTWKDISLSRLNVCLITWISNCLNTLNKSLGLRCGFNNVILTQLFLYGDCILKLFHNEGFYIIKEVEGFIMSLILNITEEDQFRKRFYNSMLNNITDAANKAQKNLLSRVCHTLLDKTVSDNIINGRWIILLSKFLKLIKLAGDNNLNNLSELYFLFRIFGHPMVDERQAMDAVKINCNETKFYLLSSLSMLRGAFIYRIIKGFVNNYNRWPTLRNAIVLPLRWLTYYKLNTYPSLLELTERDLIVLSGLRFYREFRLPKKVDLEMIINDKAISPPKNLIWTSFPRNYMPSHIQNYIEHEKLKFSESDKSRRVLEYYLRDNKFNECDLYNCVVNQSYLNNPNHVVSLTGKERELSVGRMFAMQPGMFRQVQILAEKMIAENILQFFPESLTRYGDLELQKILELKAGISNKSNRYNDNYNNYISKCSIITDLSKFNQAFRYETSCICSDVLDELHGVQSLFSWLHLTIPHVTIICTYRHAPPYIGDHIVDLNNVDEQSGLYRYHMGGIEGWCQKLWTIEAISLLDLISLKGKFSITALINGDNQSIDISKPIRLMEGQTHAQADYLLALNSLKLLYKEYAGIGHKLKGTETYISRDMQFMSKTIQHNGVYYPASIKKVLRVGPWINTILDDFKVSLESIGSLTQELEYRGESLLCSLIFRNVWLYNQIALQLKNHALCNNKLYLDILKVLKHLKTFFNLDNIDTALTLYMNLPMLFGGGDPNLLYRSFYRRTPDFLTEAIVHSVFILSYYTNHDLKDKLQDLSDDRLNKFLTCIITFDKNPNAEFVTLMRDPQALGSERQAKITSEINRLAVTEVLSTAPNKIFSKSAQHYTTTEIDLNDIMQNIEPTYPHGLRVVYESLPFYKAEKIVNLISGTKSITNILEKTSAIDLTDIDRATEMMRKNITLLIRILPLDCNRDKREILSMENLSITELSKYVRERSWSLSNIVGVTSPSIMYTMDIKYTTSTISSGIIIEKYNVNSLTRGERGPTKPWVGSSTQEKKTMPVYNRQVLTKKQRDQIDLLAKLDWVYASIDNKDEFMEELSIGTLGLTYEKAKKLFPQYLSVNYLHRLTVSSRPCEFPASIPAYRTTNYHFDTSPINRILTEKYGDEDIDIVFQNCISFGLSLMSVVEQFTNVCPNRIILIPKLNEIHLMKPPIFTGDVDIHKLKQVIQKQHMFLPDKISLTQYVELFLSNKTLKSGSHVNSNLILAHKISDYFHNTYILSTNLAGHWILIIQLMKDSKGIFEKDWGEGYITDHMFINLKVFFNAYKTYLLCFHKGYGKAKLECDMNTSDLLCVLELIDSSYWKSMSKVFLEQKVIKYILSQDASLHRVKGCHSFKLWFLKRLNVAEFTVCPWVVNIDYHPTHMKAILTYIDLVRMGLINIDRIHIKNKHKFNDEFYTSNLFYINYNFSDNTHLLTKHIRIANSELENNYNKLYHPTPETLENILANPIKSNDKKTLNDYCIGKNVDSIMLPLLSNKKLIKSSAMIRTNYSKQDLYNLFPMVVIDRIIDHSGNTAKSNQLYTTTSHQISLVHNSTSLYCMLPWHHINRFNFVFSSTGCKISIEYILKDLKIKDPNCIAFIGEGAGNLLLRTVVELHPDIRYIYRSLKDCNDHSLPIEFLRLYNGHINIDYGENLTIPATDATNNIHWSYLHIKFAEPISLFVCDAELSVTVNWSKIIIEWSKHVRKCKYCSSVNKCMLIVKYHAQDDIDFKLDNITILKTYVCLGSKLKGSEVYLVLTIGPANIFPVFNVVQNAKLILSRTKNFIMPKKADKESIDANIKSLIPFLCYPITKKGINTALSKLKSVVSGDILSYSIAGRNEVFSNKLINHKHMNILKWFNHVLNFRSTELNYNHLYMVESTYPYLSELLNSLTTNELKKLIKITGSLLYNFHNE

Series 1 — effect on: enzyme activity; action: inhibitor; quantity: IC50
Target: Phosphatidylinositol 3,4,5-trisphosphate 5-phosphatase 2, phosphatase-C2 domains (INPPL1, Homo sapiens, UniProt O15357)
Chain of UniProt O15357 (whole entry, looked up): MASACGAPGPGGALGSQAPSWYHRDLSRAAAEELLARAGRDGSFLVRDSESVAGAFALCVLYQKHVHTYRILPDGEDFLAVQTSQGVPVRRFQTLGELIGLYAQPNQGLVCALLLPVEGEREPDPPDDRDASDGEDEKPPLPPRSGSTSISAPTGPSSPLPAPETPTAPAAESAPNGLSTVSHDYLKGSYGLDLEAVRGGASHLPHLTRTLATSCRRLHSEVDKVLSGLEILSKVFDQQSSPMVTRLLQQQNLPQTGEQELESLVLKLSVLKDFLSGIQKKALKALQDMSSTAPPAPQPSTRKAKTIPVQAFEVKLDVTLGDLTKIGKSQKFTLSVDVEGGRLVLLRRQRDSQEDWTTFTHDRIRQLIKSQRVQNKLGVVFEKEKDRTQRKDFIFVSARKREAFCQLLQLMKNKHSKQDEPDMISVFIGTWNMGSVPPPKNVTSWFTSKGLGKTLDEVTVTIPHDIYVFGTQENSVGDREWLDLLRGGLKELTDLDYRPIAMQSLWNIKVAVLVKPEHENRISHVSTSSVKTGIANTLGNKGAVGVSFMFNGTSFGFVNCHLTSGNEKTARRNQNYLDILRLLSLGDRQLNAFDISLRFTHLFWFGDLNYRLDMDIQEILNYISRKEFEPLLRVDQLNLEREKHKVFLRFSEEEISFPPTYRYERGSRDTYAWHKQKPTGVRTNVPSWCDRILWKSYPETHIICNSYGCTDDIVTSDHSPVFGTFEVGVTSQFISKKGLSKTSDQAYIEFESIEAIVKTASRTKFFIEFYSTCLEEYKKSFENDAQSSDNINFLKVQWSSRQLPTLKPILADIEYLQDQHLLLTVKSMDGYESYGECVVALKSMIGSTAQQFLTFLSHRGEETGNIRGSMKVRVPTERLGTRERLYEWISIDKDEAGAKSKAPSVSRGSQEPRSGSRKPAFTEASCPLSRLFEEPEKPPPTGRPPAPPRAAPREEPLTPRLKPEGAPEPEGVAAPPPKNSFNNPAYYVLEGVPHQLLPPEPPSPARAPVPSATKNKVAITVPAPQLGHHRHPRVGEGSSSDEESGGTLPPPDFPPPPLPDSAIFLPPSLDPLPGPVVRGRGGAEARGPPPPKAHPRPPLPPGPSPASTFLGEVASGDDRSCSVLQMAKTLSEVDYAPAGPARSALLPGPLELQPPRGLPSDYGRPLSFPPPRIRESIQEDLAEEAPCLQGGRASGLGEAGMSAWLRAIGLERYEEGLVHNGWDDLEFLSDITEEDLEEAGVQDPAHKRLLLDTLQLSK
Cc1oc(-c2ccccc2Cl)nc1Cn1cccc1C1=N[C@@H](c2ccccc2)CO1: 166 µM
CC[C@H]1CC[C@H]2[C@@H]3C[C@@H](O)[C@@]4(O)C[C@H](N)CC[C@]4(C)[C@H]3CC[C@]12C: 151 µM
C=CC(=O)c1nc(C#N)ccc1N1CCCOCC1: > 800 µM
CSc1ccc2c(c1)c(CCN)c(C)n2Cc1ccc(Cl)cc1: > 500 µM
O=C(Cc1c(F)cccc1F)Nc1cc(OCc2ccc(Cl)cc2)ccn1: > 900 µM

Other studies, line by line
COCCCNC(=O)c1ccc(Cn2c(=O)c3ccccc3n(Cc3ccc([N+](=O)[O-])cc3)c2=O)cc1 — EC50 (RNA-directed RNA polymerase L (Human respiratory syncytial virus A, UniProt P28887)): 1 µM
CSCC[C@H](NC(=O)[C@H](CC(C)C)NC(=O)CNC(=O)[C@H](Cc1ccccc1)NC(=O)[C@H](Cc1ccccc1)NC(=O)[C@H](CCC(N)=O)NC(=O)[C@H](CCC(N)=O)NC(=O)[C@@H]1CCCN1C(=O)[C@H](CCCCN)NC(=O)[C@@H]1CCCN1C(=O)[C@@H](N)CCCN=C(N)N)C(N)=O — time to full degradation (ELISA; mouse, diabetic, serum; intravenous, dose not given): 5 min
Cc1sc2c(c1C)C(c1ccc(Cl)cc1)=N[C@@H](CC(=O)OC(C)(C)C)c1nnc(C)n1-2 — fold induction (NMC-797; qRT-PCR, measured: keratin-14 mRNA; 250 nM, 48 h; baseline: untreated): 30 fold
CC(C)C[C@H](NC(=O)[C@H](CCCCN)NC(=O)[C@H](CCCCN)NC(=O)Cc1cccc(CNC(=O)[C@@H](C)NC(=N)N)c1)B(O)O — inhibition (Prothrombin (F2, Bos taurus, UniProt P00735); 100 µM): 56 ± 14%
CC(=O)N[C@@H](Cc1ccc(OP(=O)(O)O)cc1)C(=O)N[C@H](C(=O)N1CCC[C@H]1C(=O)N1C[C@@H]2[C@@H](C(=O)O)[C@@H]2[C@H]1C(=O)N1CCC[C@H]1C(N)=O)[C@@H](C)O — Ki (E3 ubiquitin-protein ligase CBL, TKB domain (CBL, Homo sapiens, UniProt P22681)): 15.2 µM

Repeated from above (other studies, line by line):
CC(C)C[C@H](NC(=O)[C@H](CCCCN)NC(=O)[C@H](CCCCN)NC(=O)Cc1cccc(CNC(=O)[C@@H](C)NC(=N)N)c1)B(O)O — inhibition (Prothrombin (F2, Bos taurus, UniProt P00735); 100 µM): 56 ± 14%
